# Results from different studies.
# Every numbered part comes from another study and shows a few of its results, in no order.

# Series 1
# Target: Histone acetyltransferase KAT6A, both winged helices, GST fusion (KAT6A, Homo sapiens, UniProt Q92794, residues 1-181)
# Technique: protein binding microarray
# Molecule type: double-stranded DNA, one strand shown
# Sample: in vitro
# Concentration: not given
# Notes: 8-mer, flanks averaged, mean of 2 arrays, mostly near background
# Reference: not given
# Reading: higher = stronger binding
# Residues (chain): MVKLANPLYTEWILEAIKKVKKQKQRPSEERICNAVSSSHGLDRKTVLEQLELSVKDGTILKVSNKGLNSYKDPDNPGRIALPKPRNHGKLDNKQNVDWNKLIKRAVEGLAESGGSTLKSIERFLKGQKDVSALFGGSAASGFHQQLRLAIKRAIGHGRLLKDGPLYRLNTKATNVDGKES
Strand,E-score
CAACTTCA,-0.0767
GCTCCCAC,-0.0952
ACGATGGC,-0.108
AAACCTTT,-0.033
AGAGGCCA,-0.199

# Series 2
# Target: Sal-like protein 4, full length isoform B (SALL4, Homo sapiens, UniProt Q9UJQ4-2, residues 1-616)
# Technique: universal PBM
# Molecule type: double-stranded DNA, one strand shown
# Sample: in vitro
# Concentration: not given
# Notes: 8-mer, flanks averaged, mean of replicates
# Reading: higher = stronger binding
Strand,E-score
CCAATTGA,0.16
CAATATCA,0.342
GGGTTGTA,0.0865
CGTAGGAC,-0.229

# Series 3
# Target: Interferon regulatory factor 5, full length, phosphomimetic (IRF5, Homo sapiens, UniProt Q13568-2, residues 1-514, S451D/S453D/S456D/S462D)
# Technique: protein-binding microarray
# Molecule type: double-stranded DNA, one strand shown
# Sample: in vitro
# Concentration: 940 nM top
# Notes: 60-bp whole probe
# With: salmon DNA 0.4 mg/ml
# Reference: random background probes
# Reading: higher = stronger binding
Strand,fitted relative affinity
GCCTAGCACTTAGCTATCGGACTGGGTTAGTGCTAGGTCTTGATTCGCTTGACGCTGCTG,0.265 z-score
GCCTAGCACTTAGGTTTCGACACTGGATTAGTGCTAGTCTTGATTCGCTTGACGCTGCTG,7.73 z-score
GCCTAGCACGACCGACTGCTTATCCTGACGTGCTAGGTCTTGATTCGCTTGACGCTGCTG,-0.303 z-score
GCCTAGCACTTAGGTTTCAGTTCCGGTTAGTGCTAGGTCTTGATTCGCTTGACGCTGCTG,7.47 z-score

# Further values, each from its own experiment
Molecule,target,assay,test system,conditions,scale,quantity,result
"PhoQ, residues 284 288 289 292 302 303 AGGLSV","PhoP, residues 12 14 15 18 19 NQAHL (Escherichia coli, UniProt P23836)","Sort-seq, measured: YFP reporter",E. coli,"PhoQ-PhoP variant library, with: 10 µM Mg2+","reference: high Mg2+ state, higher = stronger signaling",fold induction,0.684
